# Measurements gathered from unrelated publications.
# Every numbered part comes from another study and shows a few of its results, in no order.
# Sequence of UniProt P08069 (whole entry, looked up): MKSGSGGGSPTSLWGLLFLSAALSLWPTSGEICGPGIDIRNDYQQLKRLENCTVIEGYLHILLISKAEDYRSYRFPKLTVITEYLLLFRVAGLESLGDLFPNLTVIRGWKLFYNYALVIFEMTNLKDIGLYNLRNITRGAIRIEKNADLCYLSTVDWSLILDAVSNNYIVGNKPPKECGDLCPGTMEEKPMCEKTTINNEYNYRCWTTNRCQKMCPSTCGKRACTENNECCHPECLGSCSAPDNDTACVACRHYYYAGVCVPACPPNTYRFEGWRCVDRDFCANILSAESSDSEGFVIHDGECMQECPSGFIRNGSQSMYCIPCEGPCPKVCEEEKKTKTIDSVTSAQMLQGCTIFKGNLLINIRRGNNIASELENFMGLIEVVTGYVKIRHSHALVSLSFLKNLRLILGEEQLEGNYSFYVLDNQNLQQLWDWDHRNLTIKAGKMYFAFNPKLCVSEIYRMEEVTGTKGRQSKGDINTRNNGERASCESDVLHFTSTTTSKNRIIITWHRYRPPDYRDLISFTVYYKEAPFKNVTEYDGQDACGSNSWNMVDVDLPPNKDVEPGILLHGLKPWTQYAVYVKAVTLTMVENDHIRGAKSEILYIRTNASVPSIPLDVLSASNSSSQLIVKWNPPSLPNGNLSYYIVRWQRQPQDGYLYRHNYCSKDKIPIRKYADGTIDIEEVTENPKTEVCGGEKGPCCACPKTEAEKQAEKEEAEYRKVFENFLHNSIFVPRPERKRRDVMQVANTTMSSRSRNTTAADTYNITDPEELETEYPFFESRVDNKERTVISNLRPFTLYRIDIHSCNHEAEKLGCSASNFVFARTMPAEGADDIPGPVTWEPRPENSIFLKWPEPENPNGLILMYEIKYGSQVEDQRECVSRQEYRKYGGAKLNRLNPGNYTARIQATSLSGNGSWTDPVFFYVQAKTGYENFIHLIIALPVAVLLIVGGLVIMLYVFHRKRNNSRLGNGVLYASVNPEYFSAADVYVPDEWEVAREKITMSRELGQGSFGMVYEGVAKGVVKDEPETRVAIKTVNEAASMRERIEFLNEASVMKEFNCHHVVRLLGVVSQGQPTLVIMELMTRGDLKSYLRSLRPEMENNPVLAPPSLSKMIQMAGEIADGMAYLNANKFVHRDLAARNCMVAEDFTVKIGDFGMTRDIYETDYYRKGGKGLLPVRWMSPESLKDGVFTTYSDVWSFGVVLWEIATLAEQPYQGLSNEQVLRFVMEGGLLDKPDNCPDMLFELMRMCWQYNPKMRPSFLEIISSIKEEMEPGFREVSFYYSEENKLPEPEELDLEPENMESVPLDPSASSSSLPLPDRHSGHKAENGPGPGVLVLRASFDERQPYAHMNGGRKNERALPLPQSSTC
# Sequence of UniProt Q9UIK4 (whole entry, looked up): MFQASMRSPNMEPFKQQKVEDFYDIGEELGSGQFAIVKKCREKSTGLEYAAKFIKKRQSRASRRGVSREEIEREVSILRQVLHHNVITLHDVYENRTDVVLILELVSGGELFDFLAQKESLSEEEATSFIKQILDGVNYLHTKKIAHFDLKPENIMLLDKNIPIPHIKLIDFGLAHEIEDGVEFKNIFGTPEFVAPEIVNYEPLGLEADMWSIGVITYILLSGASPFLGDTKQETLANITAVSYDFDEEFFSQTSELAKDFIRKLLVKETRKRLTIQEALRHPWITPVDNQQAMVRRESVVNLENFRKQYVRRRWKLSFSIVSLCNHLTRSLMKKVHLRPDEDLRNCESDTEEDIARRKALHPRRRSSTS
# Sequence of UniProt Q99755 (whole entry, looked up): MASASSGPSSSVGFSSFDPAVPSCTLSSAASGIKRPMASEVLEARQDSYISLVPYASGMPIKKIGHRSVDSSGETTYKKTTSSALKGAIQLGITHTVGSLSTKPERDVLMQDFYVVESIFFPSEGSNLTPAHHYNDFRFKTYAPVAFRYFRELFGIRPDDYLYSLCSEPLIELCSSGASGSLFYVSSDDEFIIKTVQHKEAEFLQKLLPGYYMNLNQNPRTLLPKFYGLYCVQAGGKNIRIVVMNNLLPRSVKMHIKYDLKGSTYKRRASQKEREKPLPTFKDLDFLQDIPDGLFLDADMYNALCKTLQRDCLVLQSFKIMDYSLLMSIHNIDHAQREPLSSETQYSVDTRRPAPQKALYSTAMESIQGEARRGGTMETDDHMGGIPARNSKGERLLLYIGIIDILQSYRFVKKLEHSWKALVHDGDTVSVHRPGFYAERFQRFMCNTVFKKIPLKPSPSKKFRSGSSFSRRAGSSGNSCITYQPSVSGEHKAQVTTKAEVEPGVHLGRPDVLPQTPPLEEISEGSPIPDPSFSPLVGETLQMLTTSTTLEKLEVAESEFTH
# Sequence of UniProt O75582 (whole entry, looked up): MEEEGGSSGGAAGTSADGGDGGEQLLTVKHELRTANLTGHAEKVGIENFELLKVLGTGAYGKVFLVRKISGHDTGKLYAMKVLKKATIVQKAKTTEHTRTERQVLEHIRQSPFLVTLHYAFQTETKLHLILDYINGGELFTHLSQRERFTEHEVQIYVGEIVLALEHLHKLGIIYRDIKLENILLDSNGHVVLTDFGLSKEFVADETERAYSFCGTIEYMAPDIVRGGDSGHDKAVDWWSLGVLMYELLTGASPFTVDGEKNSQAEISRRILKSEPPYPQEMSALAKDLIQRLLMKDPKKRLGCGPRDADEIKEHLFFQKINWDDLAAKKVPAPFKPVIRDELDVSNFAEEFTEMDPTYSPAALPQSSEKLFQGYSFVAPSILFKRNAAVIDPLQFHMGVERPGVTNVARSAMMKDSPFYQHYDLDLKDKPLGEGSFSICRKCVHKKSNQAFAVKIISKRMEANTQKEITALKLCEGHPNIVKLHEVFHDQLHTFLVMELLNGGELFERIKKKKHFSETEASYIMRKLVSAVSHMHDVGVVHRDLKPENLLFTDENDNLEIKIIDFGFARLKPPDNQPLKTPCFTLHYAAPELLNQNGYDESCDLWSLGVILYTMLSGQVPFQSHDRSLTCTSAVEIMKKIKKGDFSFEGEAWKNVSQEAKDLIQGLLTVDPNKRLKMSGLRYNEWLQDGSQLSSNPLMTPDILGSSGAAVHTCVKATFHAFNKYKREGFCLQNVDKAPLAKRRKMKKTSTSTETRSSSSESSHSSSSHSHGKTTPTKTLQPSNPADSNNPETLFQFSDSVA
# Sequence of UniProt P42679 (whole entry, looked up): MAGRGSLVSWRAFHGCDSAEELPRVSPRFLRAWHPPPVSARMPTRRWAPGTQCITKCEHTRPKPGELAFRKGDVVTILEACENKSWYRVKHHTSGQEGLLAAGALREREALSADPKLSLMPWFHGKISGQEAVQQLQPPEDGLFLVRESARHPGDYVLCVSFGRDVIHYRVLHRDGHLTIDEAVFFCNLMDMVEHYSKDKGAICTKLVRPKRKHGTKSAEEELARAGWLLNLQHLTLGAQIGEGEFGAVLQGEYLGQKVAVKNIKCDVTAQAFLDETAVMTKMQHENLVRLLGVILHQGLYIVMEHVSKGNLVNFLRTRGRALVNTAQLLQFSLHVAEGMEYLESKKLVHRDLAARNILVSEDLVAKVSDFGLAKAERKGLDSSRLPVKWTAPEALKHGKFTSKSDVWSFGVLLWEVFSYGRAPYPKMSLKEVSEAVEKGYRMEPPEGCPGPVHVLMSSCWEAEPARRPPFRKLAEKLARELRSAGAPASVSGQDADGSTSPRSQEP

# Sample 1
# Target: RNA binding protein fox-1 homolog 2, RRM domain, GST-SBP tag (RBFOX2, Homo sapiens, UniProt O43251-10, residues 100-194)
# Technique: RNA Bind-n-Seq
# Form: RNA
# Medium: in vitro
# Concentration: 365 nM
# Notes: natural RNA segment, single round, ends assumed
# Reference: no-protein control
# Direction: higher = stronger binding
# Construct (chain): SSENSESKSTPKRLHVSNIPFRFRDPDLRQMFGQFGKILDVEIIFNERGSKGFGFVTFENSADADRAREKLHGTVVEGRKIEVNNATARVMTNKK
Strand,RBNS enrichment (R)
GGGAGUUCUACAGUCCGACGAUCCAGAUCUUACUCCACGUAUACUUUUUGGUUUGUGAAGGCAUCGGUUAAGGGCACAAAGACAGCCAUGGGGACAUUUAUGUAAAUACGUCUCUAAUUGCCACACUGCAGCUUGGAAUUCUCGGGUGCCAA,0.377
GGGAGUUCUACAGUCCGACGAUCAGUUUGCGCUGCAUGGUACUUGUGAAGCUUAAAUAUUUUGAGUGUUCUACUGUGUCUAGGAUUGUUGGGAUUGUACAUAUGGUACUCUUUCAUAAAUGAUAAAUGAUUCUUGGAAUUCUCGGGUGCCAA,3.21
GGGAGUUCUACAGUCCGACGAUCUAAACUCCAAAGAUCUGUUUGUUUUGGCUUUACAAUCUUAGCUAAUUUUUCUGUAUCCUGGAACCAUUACAUGAUCAUGUUGCUUUGAAGAUCUUUUUAUGCCACUGUUUUGGAAUUCUCGGGUGCCAA,1.03
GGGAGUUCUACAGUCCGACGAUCAGAGAAUUUAGGCAGUGCAAAGGAGUAUUCUUGUGUGUUUGUGUUGAGUCAUUCUGUCCAUUCCUCCACCAGCUCCUGGGCACCACCUGAGAAACCGUGCUCUCUAAGUUUGGAAUUCUCGGGUGCCAA,0.314
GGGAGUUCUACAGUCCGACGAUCCUUCCCCAGCCCCUCCUCUUGUUUCUUCAUUCAUUCAACAAAAUUUGGCUGGAAUCUGGUUAUUUUGGAUUAAUUCUGCCAAGACAUAAGCCAACUGUCUGCCAGCUCCAUGGAAUUCUCGGGUGCCAA,0.579
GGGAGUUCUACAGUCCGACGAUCGUGCCGGGAUGGGAGGGCUGUGUUAUGAUUACAGCAUGUUUGGCAUUUUGUACAUUCAAUAGAGGAAAGACUAACAUAUGCACUUUAUCUCAAGAUCUUCCAGUGCAUAUUGGAAUUCUCGGGUGCCAA,7.47
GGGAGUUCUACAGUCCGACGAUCCAAGUGUAAGGAACUGCGUUCCGCCCCUCAGGCCCCCAUGGGGGCAGGGAUCGGCUUGGAAAUCAACGUGGUUGUCCCCGCCAGGCCGGGGAAGGUUGGAGCAGCCCCCAUGGAAUUCUCGGGUGCCAA,0.277
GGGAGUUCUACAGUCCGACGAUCAGGAGACCAGUCAUGAGUACCAAGGAAUUUGUCAGCUUGGUUCUAGAACUUAGCAGAGGUUGAGCUCUGCUGCACAUUGGCAGACCAGGUCAGGAUGUCUGCAGUUGGAGUGGAAUUCUCGGGUGCCAA,0.851

# Sample 2
# Species: human
# Medium: microsomes or S9
# Concentration: 2 µM
# Time: 0.5 h
SMILES,remaining compound
CC(C)c1cc(C(C)C)c(S(=O)(=O)NCc2ccc(S(N)(=O)=O)cc2)c(C(C)C)c1,1.18%
CCCC(=O)Nc1cc(C(=O)NC2CCCCC2)ccc1S(=O)(=O)c1ccc(Cl)cc1,52.3%
Cn1nc2n(c1=O)CCN(C(=O)CCn1cnnn1)CC2,72.6%
Cc1c(C)c(C)c(S(=O)(=O)N(C)c2cnccn2)c(C)c1C,0.5%
CN(CC1COc2ccccc2O1)C(=O)C1CCC(=O)NC1 (stereo not shown),91%

# Sample 3
# SMILES: O=C(NS(=O)(=O)c1ccc(NCC2CCOCC2)c([N+](=O)[O-])c1)c1ccc(N2CCN(Cc3ccc(C(F)(F)F)cc3-c3ccc(Cl)cc3)CC2)cc1Oc1cnc2[nH]ccc2c1
# Effect on: cell-free assay
# Technique: competition with immobilised ligand
# Concentration: 1 µM
target,remaining binding [%]
"IGF1R (Homo sapiens, UniProt P08069)",100
"MATK (Homo sapiens, UniProt P42679)",100
"TEK (Homo sapiens, UniProt Q02763)",80
"DAPK2 (Homo sapiens, UniProt Q9UIK4)",85
"SYK (Homo sapiens, UniProt P43405)",99
"EGFR (Homo sapiens, UniProt P00533, G719C)",83
"Ribosomal protein S6 kinase alpha-5, C-terminal kinase domain (RPS6KA5, Homo sapiens, UniProt O75582)",95
"PIP5K1A (Homo sapiens, UniProt Q99755)",93

# Sample 4
# Target: SRSF protein kinase 2 (SRPK2, Homo sapiens, UniProt P78362)
# Sequence of UniProt P78362 (whole entry, looked up): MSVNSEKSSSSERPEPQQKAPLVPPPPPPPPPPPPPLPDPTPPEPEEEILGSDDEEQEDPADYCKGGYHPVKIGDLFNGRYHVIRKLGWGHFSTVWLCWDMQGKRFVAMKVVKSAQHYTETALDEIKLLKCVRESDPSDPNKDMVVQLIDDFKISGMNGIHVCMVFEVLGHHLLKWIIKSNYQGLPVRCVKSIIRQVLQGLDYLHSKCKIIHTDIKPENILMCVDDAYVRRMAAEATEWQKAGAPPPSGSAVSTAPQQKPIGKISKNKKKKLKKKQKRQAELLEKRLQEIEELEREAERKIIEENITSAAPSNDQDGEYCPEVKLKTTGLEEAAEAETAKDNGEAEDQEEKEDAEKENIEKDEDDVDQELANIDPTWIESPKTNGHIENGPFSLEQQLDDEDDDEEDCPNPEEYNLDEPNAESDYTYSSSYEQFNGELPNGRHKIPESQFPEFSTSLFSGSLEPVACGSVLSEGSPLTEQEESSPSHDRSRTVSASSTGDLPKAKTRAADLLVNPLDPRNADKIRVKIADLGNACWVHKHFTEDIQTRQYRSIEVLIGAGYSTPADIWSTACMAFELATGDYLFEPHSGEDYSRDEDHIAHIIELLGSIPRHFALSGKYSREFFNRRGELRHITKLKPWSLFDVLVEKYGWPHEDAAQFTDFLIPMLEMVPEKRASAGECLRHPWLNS
# Effect on: enzyme activity
# Action: inhibitor
# Concentration: 0.5 µM
# Reference: control
SMILES,remaining activity
COc1ccc2c(c1)c(C1=C(c3c[nH]c4ccccc34)C(=O)NC1=O)cn2CCCN(C)C,88%
COc1cccc(-c2cc(=O)c3ccccc3o2)c1N,91.7%
O=C1NC(=O)c2c1c1c3ccccc3[nH]c1c1[nH]c3cc(Br)ccc3c21,96.2%
c1ccc2c(-c3ccncc3)c[nH]c2c1,103%
O=C1Nc2ccc(Br)cc2/C1=C/c1cc2c([nH]1)CCCC2,90.6%
CN1CCN(c2ccc3nc(-c4c(N)c5c(F)cccc5[nH]c4=O)[nH]c3c2)CC1,99.9%
N#Cc1cnc2cnc(NCc3cccnc3)cc2c1Nc1ccc(F)c(Cl)c1,101%

# Excerpt of the above (sample 1):
Strand,RBNS enrichment (R)
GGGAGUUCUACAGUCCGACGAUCAGGAGACCAGUCAUGAGUACCAAGGAAUUUGUCAGCUUGGUUCUAGAACUUAGCAGAGGUUGAGCUCUGCUGCACAUUGGCAGACCAGGUCAGGAUGUCUGCAGUUGGAGUGGAAUUCUCGGGUGCCAA,0.851
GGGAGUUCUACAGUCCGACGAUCUAAACUCCAAAGAUCUGUUUGUUUUGGCUUUACAAUCUUAGCUAAUUUUUCUGUAUCCUGGAACCAUUACAUGAUCAUGUUGCUUUGAAGAUCUUUUUAUGCCACUGUUUUGGAAUUCUCGGGUGCCAA,1.03
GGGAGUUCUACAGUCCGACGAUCCAGAUCUUACUCCACGUAUACUUUUUGGUUUGUGAAGGCAUCGGUUAAGGGCACAAAGACAGCCAUGGGGACAUUUAUGUAAAUACGUCUCUAAUUGCCACACUGCAGCUUGGAAUUCUCGGGUGCCAA,0.377
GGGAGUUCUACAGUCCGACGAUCCAAGUGUAAGGAACUGCGUUCCGCCCCUCAGGCCCCCAUGGGGGCAGGGAUCGGCUUGGAAAUCAACGUGGUUGUCCCCGCCAGGCCGGGGAAGGUUGGAGCAGCCCCCAUGGAAUUCUCGGGUGCCAA,0.277
